Published values from different studies.
Compare with care: the assays were run in different laboratories. “And” joins repeats or separate records; there may be more than shown. ± marks the error that the study gave.

Substance | tested on | test | system | setting | how to read | quantity | value
CCT6A |  | co-immunoprecipitation | human RBC membrane | DSSO crosslinker, unit not given, together with: Band 3 peptide 1-56 bait | relative to: negative control | co-IP enrichment | 235
GGWVEKETYY | human MAGI1-2/6 PDZ construct (MBP fusion) | automated holdup | peptide, crude extract | concentration not given, corrected by standard peak, unit not given | relative to: biotin control resin, higher = stronger binding | binding intensity | -0.0476
YEQDPWGVKWWY |  |  | peptide, mouse, CP model, serum | 0.154 µmol/kg, 4 weeks |  | serum TNF-alpha | decreased
hemoglobin alpha |  | co-immunoprecipitation | human plasma | unit not given, together with: Band 3 peptide 1-56 bait | relative to: negative control | co-IP enrichment | 0.31
semaglutide |  | H&E histology, NASH-CRN scoring | Wistar rat, male, diet-induced obese, liver | subcutaneous, dose not given, 10 weeks treatment |  | lobular inflammation score | decreased
CCT3 |  | co-immunoprecipitation | human RBC membrane | unit not given, together with: Band 3 peptide 1-56 bait | relative to: negative control | co-IP enrichment | 0
maraviroc |  | ELISA | HIV-infected mice, plasma | i.p., 120 mg/kg twice daily, 3 weeks post infection |  | Aβ40 level | 205 ± 54.2 pg/mL
heparin sodium |  |  | healthy Chinese adult volunteers, plasma | continuous intravenous infusion, 8 IU/kg/h, day 1 to 6 of 5-day infusion, mean |  | maximum prothrombin time (Emax) | 13.9 s
insulin aspart |  | euglycaemic glucose clamp | human, adults with type 1 diabetes, up to 35 years | subcutaneous, 0.2 U/kg |  | time to early 50% GIRmax | 41.3 min
somatropin |  |  | children with severe GH deficiency, short stature | dose not given, GHR mutation patients |  | height gain in first year of therapy | 6 cm
cotadutide |  | lipidomics, refers to: hepatic total Sphingomyelins | ob/ob mice on AMLN diet, NASH model, liver | dose not given |  | metabolite level | 0.96 ± 0.04 scaled intensity
difelikefalin |  |  | Japanese haemodialysis patients with pruritus | intravenous, 0.5 µg/kg, 8 weeks |  | PGIC no change | 10.2%
calcium |  | ion current, two-electrode voltage clamp | Xenopus oocytes | 10 mM, -80 mV, together with: niflumic acid present |  | desensitization time constant | 11.2 s and 7.6 s and 7.77 s and 4.53 s and 7.07 s
PKRSFIESNV | human MAGI1-3/6 PDZ construct (MBP fusion) | automated holdup | peptide, purified PDZ protein | concentration not given, unit not given | relative to: biotin control resin, higher = stronger binding | binding intensity | -0.118
human retinal dehydrogenase 1 |  | co-immunoprecipitation | human RBC membrane | unit not given, together with: Band 3 peptide 1-56 bait | relative to: negative control | co-IP enrichment | 0

Some of these lines once more:
Substance | tested on | test | system | setting | how to read | quantity | value
difelikefalin |  |  | Japanese haemodialysis patients with pruritus | intravenous, 0.5 µg/kg, 8 weeks |  | PGIC no change | 10.2%
